Results of several laboratories.
Compare with care: the assays were run in different laboratories. Numbers after ± are the reported error.
SIRT5: NAD-dependent protein deacylase sirtuin-5, mitochondrial (SIRT5, Homo sapiens, UniProt Q9NXA8)
UniProt Q9NXA8, sequence (whole entry, looked up): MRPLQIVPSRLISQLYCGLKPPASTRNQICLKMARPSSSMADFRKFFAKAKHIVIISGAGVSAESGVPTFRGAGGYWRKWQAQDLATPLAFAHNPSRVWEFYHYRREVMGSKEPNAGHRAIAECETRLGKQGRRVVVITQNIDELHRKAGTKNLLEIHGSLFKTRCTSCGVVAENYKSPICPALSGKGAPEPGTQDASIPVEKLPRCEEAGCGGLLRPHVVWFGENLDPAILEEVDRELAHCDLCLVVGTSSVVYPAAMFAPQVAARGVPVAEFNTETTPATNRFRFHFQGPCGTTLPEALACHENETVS
Formate-nitrite transporter: Formate-nitrite transporter (Plasmodium falciparum, UniProt O77389)
UniProt O77389, sequence (whole entry, looked up): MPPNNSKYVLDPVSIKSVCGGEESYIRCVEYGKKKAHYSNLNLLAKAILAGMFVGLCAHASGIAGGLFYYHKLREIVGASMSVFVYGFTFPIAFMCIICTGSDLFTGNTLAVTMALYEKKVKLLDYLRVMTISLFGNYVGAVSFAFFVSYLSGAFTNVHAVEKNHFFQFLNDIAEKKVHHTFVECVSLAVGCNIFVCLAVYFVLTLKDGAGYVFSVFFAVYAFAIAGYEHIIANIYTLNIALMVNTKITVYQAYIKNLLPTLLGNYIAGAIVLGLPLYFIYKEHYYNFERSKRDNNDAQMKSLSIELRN
lasR: Transcriptional activator protein LasR (lasR, Pseudomonas aeruginosa, UniProt P25084)
UniProt P25084, sequence (whole entry, looked up): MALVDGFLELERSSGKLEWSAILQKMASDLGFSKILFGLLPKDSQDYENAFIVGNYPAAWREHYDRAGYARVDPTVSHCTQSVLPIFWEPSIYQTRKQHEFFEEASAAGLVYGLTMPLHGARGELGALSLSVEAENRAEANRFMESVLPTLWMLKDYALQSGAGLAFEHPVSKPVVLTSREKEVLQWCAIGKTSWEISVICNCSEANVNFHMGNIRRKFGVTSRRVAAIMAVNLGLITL
CYP2C19: Cytochrome P450 2C19 (CYP2C19, Homo sapiens, UniProt P33261)
UniProt P33261, sequence (whole entry, looked up): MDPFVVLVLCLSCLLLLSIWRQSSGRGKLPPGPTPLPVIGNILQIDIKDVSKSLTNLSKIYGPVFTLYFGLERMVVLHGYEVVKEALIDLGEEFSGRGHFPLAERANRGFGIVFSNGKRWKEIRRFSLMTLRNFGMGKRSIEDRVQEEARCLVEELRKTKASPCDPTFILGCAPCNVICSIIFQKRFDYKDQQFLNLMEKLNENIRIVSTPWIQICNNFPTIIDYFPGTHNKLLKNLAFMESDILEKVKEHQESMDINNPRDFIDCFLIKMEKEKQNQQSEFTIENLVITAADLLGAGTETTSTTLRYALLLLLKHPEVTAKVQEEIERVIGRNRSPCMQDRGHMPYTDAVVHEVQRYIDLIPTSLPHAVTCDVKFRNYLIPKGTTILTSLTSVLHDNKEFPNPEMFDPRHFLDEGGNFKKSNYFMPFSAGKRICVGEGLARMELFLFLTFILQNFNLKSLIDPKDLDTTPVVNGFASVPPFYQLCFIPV
blaNDM-1: Metallo-beta-lactamase type 2 (blaNDM-1, Klebsiella pneumoniae, UniProt C7C422)
UniProt C7C422, sequence (whole entry, looked up): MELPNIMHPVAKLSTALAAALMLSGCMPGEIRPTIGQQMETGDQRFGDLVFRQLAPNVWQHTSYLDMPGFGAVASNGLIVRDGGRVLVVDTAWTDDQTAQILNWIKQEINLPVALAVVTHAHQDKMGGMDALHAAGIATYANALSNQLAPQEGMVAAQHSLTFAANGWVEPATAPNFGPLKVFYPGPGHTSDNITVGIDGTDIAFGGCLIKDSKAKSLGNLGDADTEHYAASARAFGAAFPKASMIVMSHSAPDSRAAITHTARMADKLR
CXCR4: C-X-C chemokine receptor type 4 (CXCR4, Homo sapiens, UniProt P61073)
UniProt P61073, sequence (whole entry, looked up): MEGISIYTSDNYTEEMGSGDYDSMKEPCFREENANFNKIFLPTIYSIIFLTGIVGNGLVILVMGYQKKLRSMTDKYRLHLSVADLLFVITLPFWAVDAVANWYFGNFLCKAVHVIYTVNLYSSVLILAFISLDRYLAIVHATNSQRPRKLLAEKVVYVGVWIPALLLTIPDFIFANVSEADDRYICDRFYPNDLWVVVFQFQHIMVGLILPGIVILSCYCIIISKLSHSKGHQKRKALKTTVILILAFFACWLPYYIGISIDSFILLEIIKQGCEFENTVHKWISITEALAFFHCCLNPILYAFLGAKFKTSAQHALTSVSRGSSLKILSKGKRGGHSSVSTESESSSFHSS
Uncharacterized hydrolase SAUSA300_2518: Uncharacterized hydrolase SAUSA300_2518 (Staphylococcus aureus, UniProt Q2FDS6)
UniProt Q2FDS6, sequence (whole entry, looked up): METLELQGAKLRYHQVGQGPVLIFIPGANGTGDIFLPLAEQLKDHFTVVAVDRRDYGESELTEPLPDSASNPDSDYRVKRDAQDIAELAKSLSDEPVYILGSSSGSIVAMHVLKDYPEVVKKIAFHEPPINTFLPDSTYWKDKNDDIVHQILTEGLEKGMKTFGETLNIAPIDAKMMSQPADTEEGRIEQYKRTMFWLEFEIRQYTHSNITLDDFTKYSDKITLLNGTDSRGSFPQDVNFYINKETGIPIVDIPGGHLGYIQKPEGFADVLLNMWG
UniProt Q99436, sequence (whole entry, looked up): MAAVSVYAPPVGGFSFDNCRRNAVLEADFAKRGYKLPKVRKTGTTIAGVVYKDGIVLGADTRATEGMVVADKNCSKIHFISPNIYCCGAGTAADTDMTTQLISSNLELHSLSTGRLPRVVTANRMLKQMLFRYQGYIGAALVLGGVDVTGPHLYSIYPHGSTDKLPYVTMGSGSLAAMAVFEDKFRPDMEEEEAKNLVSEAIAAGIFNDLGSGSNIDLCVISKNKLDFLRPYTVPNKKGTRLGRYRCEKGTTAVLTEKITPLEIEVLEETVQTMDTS
UniProt P37288, sequence (whole entry, looked up): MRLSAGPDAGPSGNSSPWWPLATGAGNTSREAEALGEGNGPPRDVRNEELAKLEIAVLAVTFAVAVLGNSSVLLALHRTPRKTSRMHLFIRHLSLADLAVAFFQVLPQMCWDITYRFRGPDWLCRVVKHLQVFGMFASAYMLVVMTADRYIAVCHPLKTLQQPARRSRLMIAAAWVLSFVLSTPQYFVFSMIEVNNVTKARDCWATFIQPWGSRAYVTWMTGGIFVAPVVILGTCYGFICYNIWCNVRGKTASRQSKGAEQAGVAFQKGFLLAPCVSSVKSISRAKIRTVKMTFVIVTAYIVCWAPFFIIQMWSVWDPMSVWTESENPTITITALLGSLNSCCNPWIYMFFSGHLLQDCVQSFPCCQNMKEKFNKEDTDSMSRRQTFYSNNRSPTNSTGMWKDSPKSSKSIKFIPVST
UniProt P19491, sequence (whole entry, looked up): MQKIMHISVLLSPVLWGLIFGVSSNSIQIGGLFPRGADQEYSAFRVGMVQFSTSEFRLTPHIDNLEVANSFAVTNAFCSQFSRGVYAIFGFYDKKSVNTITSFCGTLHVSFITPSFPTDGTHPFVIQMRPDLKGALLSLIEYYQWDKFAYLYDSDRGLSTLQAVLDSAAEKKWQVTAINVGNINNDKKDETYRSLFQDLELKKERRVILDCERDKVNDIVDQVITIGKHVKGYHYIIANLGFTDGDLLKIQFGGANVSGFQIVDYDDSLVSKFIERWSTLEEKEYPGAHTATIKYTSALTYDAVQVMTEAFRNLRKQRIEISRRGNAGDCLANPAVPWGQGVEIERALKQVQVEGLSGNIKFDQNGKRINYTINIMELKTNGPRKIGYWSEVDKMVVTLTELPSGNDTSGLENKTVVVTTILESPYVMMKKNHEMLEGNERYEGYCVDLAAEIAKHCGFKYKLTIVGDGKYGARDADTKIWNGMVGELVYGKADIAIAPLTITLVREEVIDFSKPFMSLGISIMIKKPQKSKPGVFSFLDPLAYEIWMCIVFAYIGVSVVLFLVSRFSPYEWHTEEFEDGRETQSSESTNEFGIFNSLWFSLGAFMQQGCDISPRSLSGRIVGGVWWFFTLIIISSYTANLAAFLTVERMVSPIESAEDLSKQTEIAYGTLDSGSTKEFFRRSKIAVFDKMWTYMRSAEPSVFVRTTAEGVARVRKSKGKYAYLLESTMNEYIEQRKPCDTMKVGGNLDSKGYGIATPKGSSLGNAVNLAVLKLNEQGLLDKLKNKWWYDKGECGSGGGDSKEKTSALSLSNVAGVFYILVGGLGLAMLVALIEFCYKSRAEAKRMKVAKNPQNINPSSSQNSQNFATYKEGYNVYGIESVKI
UniProt P15090, sequence (whole entry, looked up): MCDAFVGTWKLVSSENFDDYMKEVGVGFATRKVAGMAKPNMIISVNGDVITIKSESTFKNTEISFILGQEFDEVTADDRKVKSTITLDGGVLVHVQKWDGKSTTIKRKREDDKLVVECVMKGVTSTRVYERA
UniProt P21397, sequence (whole entry, looked up): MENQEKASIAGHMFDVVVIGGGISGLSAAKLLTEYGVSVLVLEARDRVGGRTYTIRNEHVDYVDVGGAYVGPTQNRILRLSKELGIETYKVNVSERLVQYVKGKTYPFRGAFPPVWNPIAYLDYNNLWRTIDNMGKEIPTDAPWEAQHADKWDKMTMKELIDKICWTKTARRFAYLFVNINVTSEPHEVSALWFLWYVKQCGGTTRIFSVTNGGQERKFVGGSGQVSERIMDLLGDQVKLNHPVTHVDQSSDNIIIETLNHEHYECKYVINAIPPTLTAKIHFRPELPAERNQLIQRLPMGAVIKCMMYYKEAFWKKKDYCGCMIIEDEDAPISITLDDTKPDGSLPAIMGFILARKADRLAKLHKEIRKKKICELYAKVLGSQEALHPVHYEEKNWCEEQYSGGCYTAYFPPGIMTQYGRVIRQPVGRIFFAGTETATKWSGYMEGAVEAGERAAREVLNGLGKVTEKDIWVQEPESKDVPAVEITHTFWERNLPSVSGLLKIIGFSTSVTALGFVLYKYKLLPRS
UniProt Q8IXJ6, sequence (whole entry, looked up): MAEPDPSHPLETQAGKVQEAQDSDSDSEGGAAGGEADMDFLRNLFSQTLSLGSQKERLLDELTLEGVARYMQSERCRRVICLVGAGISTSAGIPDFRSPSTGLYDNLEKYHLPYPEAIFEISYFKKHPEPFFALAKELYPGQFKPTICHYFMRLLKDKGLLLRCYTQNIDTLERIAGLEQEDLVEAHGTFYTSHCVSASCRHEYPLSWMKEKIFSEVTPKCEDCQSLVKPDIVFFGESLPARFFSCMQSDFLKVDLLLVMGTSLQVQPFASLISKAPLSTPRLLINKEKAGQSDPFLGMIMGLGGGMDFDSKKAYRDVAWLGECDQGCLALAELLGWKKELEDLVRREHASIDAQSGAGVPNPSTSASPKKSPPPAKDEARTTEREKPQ

SMILES | target | assay | system | setting | IC50
O=C(NCCCC[C@H](NS(=O)(=O)c1cccc(F)c1)C(=O)N[C@@H](Cc1c[nH]c2ccccc12)C(=O)NC1CCC1)c1cncc(OS(=O)(=O)F)c1 | SIRT5 | inhibitor, fluorogenic |  | 16 h preincubation, His-tagged enzyme 150 nM, with: NAD+ 500 µM | 16 ± 8 µM
COC(=O)Cc1cc2c(cc1C(=O)c1cccc(Br)c1)OCO2 | Gria2/Glutamate receptor 3 (Rattus norvegicus, UniProt P19491+P19492) | ion current, antagonist, patch clamp |  |  | 5.37 µM
COc1cc(CNc2ccc(C(=O)C=C(O)C(F)(F)C(F)(F)F)cn2)cc(OC)c1OC | Formate-nitrite transporter | L-lactate transport, inhibitor, fluorescence | yeast | pH 6.8, with: L-lactate 1 mM | 0.212 ± 0.034 µM
O=C(O)C(F)(OC(F)(F)C(F)(F)C(F)(F)F)C(F)(F)F (stereo not shown) | Fatty acid-binding protein, adipocyte (FABP4, Homo sapiens, UniProt P15090) | ligand displacement, fluorescence |  | pH 7.5 | 47.3 µM
CC(C)C[C@H](NC(=O)[C@H](Cc1ccc(CN)cc1)NC(=O)[C@H](Cc1ccccc1)N=[N+]=[N-])C(=O)N[C@@H](CC1CC2CCC1C2)C(=O)[C@@]1(C)CO1 (stereo in doubt) | Proteasome subunit beta type-7 (PSMB7, Homo sapiens, UniProt Q99436) | inhibitor, competitive ABPP | Raji cell lysate | constitutive proteasome β2c | 1.16 µM
CC(C)(COP(=O)(O)OP(=O)(O)OC[C@H]1O[C@@H](n2cnc3c(N)ncnc32)[C@H](O)[C@@H]1OP(=O)(O)O)[C@@H](O)C(=O)NCCC(=O)NCCSCC(=O)N[C@@H](CO)C(=O)NCC(=O)N[C@@H](CCCNC(=N)N)C(=O)N[C@@H](CCCCN)C(=O)N[C@@H](CCCCN)C(=O)N[C@@H](CCCNC(=N)N)C(=O)N[C@@H](CCCNC(=N)N)C(=O)N[C@@H](CCC(N)=O)C(=O)N[C@@H](CCCNC(=N)N)C(=O)N[C@@H](CCCNC(=N)N)C(=O)N[C@@H](CCCNC(=N)N)C(N)=O | N-alpha-acetyltransferase 40 (NAA40, Homo sapiens, UniProt Q86UY6) | enzyme activity, inhibitor, fluorescence |  |  | 0.337 µM
C[C@H](NCc1ccc(-c2ccc(C(F)(F)F)cc2)cc1)C(N)=O | Amine oxidase [flavin-containing] A (MAOA, Homo sapiens, UniProt P21397) | enzyme activity, inhibitor, fluorescence |  |  | > 100 µM
O=C(O)CCn1c(=O)oc2cc(Cl)c(Cl)cc21 | Vasopressin V1a receptor (AVPR1A, Homo sapiens, UniProt P37288) | antagonist |  | median value | > 50.1 µM
CCCCCC(=O)CC(=O)N[C@H]1CCOC1=O | lasR | reporter gene, antagonist | Escherichia coli, JLD271 with LasR plasmid | with: OdDHL 50 nM | 2.9 µM
C#CCNC(=O)c1ccc(S(=O)(=O)N[C@@H](CCCCNC(=S)NC)C(=O)N[C@@H](CCCNC(=N)N)C(=O)N[C@@H](CC2CCCCC2)C(=O)N[C@H](CCCCN)C(=O)N[C@@H](CC2CCCCC2)C(=O)N[C@H](CCCNC(=N)N)C(=O)N[C@@H](CC2CCCCC2)C(N)=O)cc1 | NAD-dependent protein deacetylase sirtuin-2 (SIRT2, Homo sapiens, UniProt Q8IXJ6) | enzyme activity, inhibitor, fluorescence |  |  | 0.89 µM
CC(C)CNc1ccc(C(=O)C=C(O)C(F)(F)C(F)(F)F)cn1 | Formate-nitrite transporter | L-lactate transport, inhibitor, fluorescence | yeast | pH 6.8, with: L-lactate 1 mM | 0.096 ± 0.015 µM
Cc1ccc(CNC(=O)c2ccn3c(-c4ccc(C#N)cc4)cnc3c2)cn1 | CYP2C19 | enzyme activity, inhibitor |  |  | > 10 µM
CCC(=O)Nc1ccc(C(=O)C=C(O)C(F)(F)C(F)(F)F)cn1 | Formate-nitrite transporter | L-lactate transport, inhibitor, fluorescence | yeast | pH 6.8, with: L-lactate 1 mM | 0.401 ± 0.06 µM
CC(C)C[C@@H]1NC(=O)[C@@H](CCCNC(=N)N)NC(=O)[C@@H]([C@H](C)O)NC(=O)[C@H](CCC(=O)O)NC(=O)[C@@H]2CCCN2C(=O)[C@H](CC(C)C)NC(=O)[C@@H]2CCCN2C(=O)[C@@H](CS)NC1=O | blaNDM-1 | enzyme activity, inhibitor, absorbance |  |  | 51.1 µM
CN1C(=O)[C@@H](Cc2ccc(O)cc2)NC(=O)CNC(=O)[C@H](Cc2ccc3ccccc3c2)NC(=O)[C@H](CCCNC(=N)N)NC(=O)[C@H]1CCCNC(=O)c1ccc(NC(=O)CCNC(=O)CN2CCN(CC(=O)O)CCN(CC(=O)O)CCN(CC(=O)O)CC2)cc1 | CXCR4 |  |  |  | 0.0417 ± 0.0155 µM
O=P(O)(O)C(Nc1ccccc1)P(=O)(O)O | polyphosphate kinase 2 (Cytophaga hutchinsonii, UniProt A0A6N4SMB5) |  |  |  | > 1000 µM
C#CCNC(=O)c1ccc([P+](CCCC(=O)N[C@@H](CCCCNC(=O)c2cncc(OS(=O)(=O)F)c2)C(=O)N[C@@H](CCCNC(=N)N)C(=O)NC2CCC2)(c2ccccc2)c2ccccc2)cc1 | SIRT5 | inhibitor, fluorogenic |  | pre-incubation 24 h, with: NAD+ 500 µM | 4.9 ± 0.3 µM
CCCCCNc1ccc(C(=O)C=C(O)C(F)(F)C(F)(F)F)cn1 | Formate-nitrite transporter | L-lactate transport, inhibitor, fluorescence | yeast | pH 6.8, with: L-lactate 1 mM | 0.032 ± 0.005 µM
COc1cc(C[C@H](C)[C@H](C)Cc2ccc3c(c2)OCO3)ccc1O | Dipeptidyl peptidase 4 (DPP4, Homo sapiens, UniProt P27487) | enzyme activity, inhibitor, fluorescence |  |  | > 100 µM

SMILES | target | assay | system | setting | IC50
O=C(Nc1ccccc1NC(=O)c1cccc(Cl)c1)c1cccc(Cl)c1 | lasR | reporter gene, antagonist, lasI-LVAgfp reporter | PAO-JP2 | efflux pump active, with: OdDHL 150 nM | 63 µM
CSCC[C@H]1NC(=O)[C@H](Cc2ccccc2)NC(=O)[C@H](NC(=O)[C@H](C)N)CSC(=O)[C@H](C(C)C)NC(=O)[C@H](Cc2ccccc2)NC1=O | Histidine kinase AgrC (Listeria monocytogenes, UniProt A8E0G3) | agr signalling |  |  | 0.242 µM
Cc1ccc2c(n1)c(-c1cccc(S(C)(=O)=O)c1)c(C)n2C/C(F)=C/CN | CYP2C19 | enzyme activity, inhibitor | human liver microsomes | without NADPH preincubation | 0.49 µM
CC1(C)NC(=O)[C@@H](CC(=O)O)NC(=O)[C@H](CCC(=O)O)NC(=O)[C@H](CCCN)NC(=O)[C@H](C(c2ccccc2)c2ccccc2)NC(=O)[C@@H]2CCCN2C(=O)[C@H]2CCCN2C(=O)[C@H](CC(N)=O)NC1=O | blaNDM-1 | enzyme activity, inhibitor, absorbance |  |  | 303 µM
CN(C(=O)c1ccn2ncc(-c3ccc(C(N)=O)cc3)c2c1)c1ccc(C#N)cn1 | Phosphatidylinositol 4-kinase (Cryptosporidium parvum, UniProt Q5CVD3, S871L) | inhibitor |  |  | 0.0085 ± 0.0002 µM
CCN(N=Cc1cnc2ccc(Br)cn12)S(=O)(=O)c1cc([N+](=O)[O-])ccc1C | Phosphatidylinositol 4,5-bisphosphate 3-kinase catalytic subunit alpha isoform (PIK3CA, Homo sapiens, UniProt P42336, K776A) | enzyme activity, inhibitor |  |  | 0.59 µM
CC(C)C[C@@H](N)C(=O)NCC(=O)N[C@H](C)C(=O)N[C@H](CO)C(=O)N[C@H](Cc1c[nH]c2ccccc12)C(=O)N[C@H](Cc1c[nH]cn1)C(=O)N[C@H](CCCNC(=N)N)C(=O)N1CCC[C@@H]1C(=O)N[C@H](CC(=O)O)C(=O)N[C@H](CCCCN)C(=O)N[C@H](CCCCN)C(=O)N[C@H](CCCNC(=N)N)C(=O)NCCCCCC(=O)N[C@@H](CCCCN)C(=O)N[C@@H](CCCNC(=N)N)C(=O)N[C@@H](CCCCN)C(=O)N[C@@H](CCC(N)=O)C(=O)N[C@@H](CCCNC(=N)N)C(=O)NCC(=O)N1CCC[C@H]1C(=O)NCC(=O)N[C@@H](CCCNC(=N)N)C(=O)N[C@@H](C)C(=O)N[C@@H](Cc1ccccc1)C(N)=O | CXCR4 | antagonist |  | concentration not given | 0.101 µM
Cc1cc(-c2ccc3ccccc3c2)nnc1NCCN1CCN(C)CC1 | Multidrug and toxin extrusion protein 2 (SLC47A2, Homo sapiens, UniProt Q86VL8) | transport, inhibitor |  |  | 1.9 µM
CCCCCCCCn1nc(OC)oc1=O | Uncharacterized hydrolase SAUSA300_2518 | enzyme activity, inhibitor | USA300 | 1 h preincubation, enzyme 0.5 nM, with: 20 µM 4-MU octanoate | 32.7 µM
O=C(Cc1cccc(I)c1)N[C@H]1CCOC1=O | lasR | reporter gene, antagonist | Escherichia coli lasI-lacZ reporter | with: 5 nM OdDHL | 0.6 µM
O=C(Cc1ccccc1)N[C@H](C(=O)O)[C@@H]1N=C(C(=O)O)C(CS[C@H](Cc2ccccc2)C(=O)O)CS1 (stereo partly shown) | blaNDM-1 | enzyme activity, inhibitor, absorbance |  |  | > 100 µM
Nc1nc(N)c2c(n1)OC1(CCNCC1)C2 | TERT (Tribolium castaneum, UniProt Q0QHL8) | enzyme activity, inhibitor, fluorescence |  |  | 95 µM
N=C(N)NCCC[C@H](NC(=O)[C@H](CCCCNC(=O)c1cncc(OS(=O)(=O)F)c1)NS(=O)(=O)c1cccc(F)c1)C(=O)NC1CCC1 | SIRT5 | inhibitor, fluorogenic |  | pre-incubation 4 h, with: NAD+ 500 µM | 36 ± 5.7 µM
CSCC[C@H](NC(=O)[C@@H](N)CCCNC(=N)N)C(=O)N[C@@H](CO)C(=O)N[C@@H](C)C(=O)N1CCC[C@H]1C(=O)N[C@@H](CO)C(=O)N[C@H](C(=O)NCC(=O)NCC(=O)N[C@H](C(=O)O)C(C)C)[C@@H](C)O | HLA class I histocompatibility antigen, A alpha chain, allele A*02:07 (Homo sapiens, UniProt P04439) | binding |  |  | 25.6 µM
CC(C)C[C@@H]1NC(=O)[C@@H](CCCNC(=N)N)NC(=O)[C@@H](CCCNC(=N)N)NC(=O)[C@H](CCC(=O)O)NC(=O)[C@@H]2CCCN2C(=O)[C@H](CC(C)C)NC(=O)[C@@H]2CCCN2C(=O)[C@@H](CS)NC1=O | blaNDM-1 | enzyme activity, inhibitor, absorbance |  |  | 7.16 µM
CCOC(=O)C1CCN(C(=O)n2cc[n+](C)c2)CC1 | Uncharacterized hydrolase SAUSA300_2518 | enzyme activity, inhibitor |  |  | > 50 µM
O=C(C=C(O)C(F)(F)C(F)(F)F)c1ccc(N2CCNCC2)nc1 | Formate-nitrite transporter | L-lactate transport, inhibitor, fluorescence | yeast | pH 6.8, with: L-lactate 1 mM | 8.41 ± 1.88 µM
NCC[C@H]1NC(=O)[C@@H](CCC(N)=O)NC(=O)[C@H](CCC(=O)O)NC(=O)[C@@H]2CCCN2C(=O)[C@H](C(c2ccccc2)c2ccccc2)NC(=O)[C@@H]2CCCN2C(=O)[C@H]2CCCN2C(=O)[C@H](CCC(N)=O)NC1=O | blaNDM-1 | enzyme activity, inhibitor, absorbance |  |  | 173 µM
